Published values of several laboratories.
Lines come from different studies, so protocols differ. ± marks the error that the study gave.
Chain of UniProt P02769 (whole entry, looked up): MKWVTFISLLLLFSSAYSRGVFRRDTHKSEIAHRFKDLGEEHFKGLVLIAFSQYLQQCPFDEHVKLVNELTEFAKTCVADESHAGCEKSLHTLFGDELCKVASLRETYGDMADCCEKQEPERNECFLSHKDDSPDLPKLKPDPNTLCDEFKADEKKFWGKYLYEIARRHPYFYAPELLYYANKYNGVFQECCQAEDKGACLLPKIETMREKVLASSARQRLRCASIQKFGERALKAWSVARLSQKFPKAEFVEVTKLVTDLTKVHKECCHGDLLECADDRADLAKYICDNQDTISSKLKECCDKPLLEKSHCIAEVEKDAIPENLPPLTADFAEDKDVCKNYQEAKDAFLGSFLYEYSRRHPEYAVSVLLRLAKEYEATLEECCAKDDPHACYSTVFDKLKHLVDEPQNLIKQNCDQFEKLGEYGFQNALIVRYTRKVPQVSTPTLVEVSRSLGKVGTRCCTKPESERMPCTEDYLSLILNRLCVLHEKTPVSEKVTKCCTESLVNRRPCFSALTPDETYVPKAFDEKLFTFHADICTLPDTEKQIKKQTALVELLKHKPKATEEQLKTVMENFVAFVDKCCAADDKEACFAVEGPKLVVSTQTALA

N=C(N)c1ccc(-c2ccc(-c3cccs3)o2)nc1 — viability (Salmonella typhimurium; liquid broth OD; TA1535; 25 µM, 15 h; baseline: growth): 101 ± 4.4%
C=CCC1=C[C@@]2(C[C@H](O)C(C)(C)O2)C2=C(C[C@H]3C[C@@H]4[C@@H](C[C@@]3(C)O2)C(=C)CCCC4(C)C)C1=O — selectivity index (coxsackievirus B3; cytopathic effect; Vero, Nancy; baseline: CC50 over IC50): 4.3
N=C(N)c1ccc(-c2ccc(-c3ccco3)o2)cc1 — viability (Salmonella typhimurium; liquid broth OD; TA1535; 12.5 µM, 15 h; baseline: growth): 79.1 ± 2.6%
CCCC[C@H](NC(C)=O)C(=O)N[C@H]1CC(=O)NCCCC[C@@H](C(=O)N[C@@H](C(=O)N2CCC[C@@H]2C(N)=O)C(C)C)NC(=O)[C@H](Cc2c[nH]c3ccccc23)NC(=O)[C@H](CCCN=C(N)N)NC(=O)[C@@H](Cc2ccc3ccccc3c2)NC(=O)[C@@H]2CCCN2C1=O — AUC (Beagle dog, both sexes, plasma; subcutaneous, once daily, 2.25 mg/kg, day 28): 29100 ± 5000 ng·h/mL
N=C(N)c1ccc(-c2ccc(-c3ccco3)o2)nc1 — viability (Salmonella typhimurium; liquid broth OD; TA1535; 25 µM, 15 h; baseline: growth): 102 ± 9%
N#Cc1cc(C(=O)OCC[18F])c(C(F)(F)F)nc1N1CCC(C(=O)NS(=O)(=O)c2ccc(Cl)s2)CC1 — permeability (bEnd.3 monolayer transwell; concentration not given): 7.5%
Cc1cc(C#N)cc(C)c1Oc1nc(NC2CCN(Cc3ccc([N+](=O)[O-])cc3)CC2)nc2ccccc12 — selectivity index (HIV-1; TZM-bl, NL4-3 wild type; baseline: CC50 over EC50): > 16.6
CC(=O)N[C@H](C(=O)N[C@H](C(=O)N[C@@H](CCCNC(=N)N)C(=O)N1Cc2ccccc2C[C@H]1C(=O)N[C@@H](Cc1ccccc1)C(N)=O)C1CCCCC1)C(C)C — cytokine level (human PBMC; Bio-Plex multiplex, refers to: IL-10; 250 µg/mL, 24 h): 4.3 ± 2.9 pg/mL
O=C(O)CCC(NP(=O)(O)OCCC[C@@H](NC(=O)CC[C@H](NC(=O)CCCCCNC(=O)c1ccc([18F])cc1)C(=O)O)C(=O)O)C(=O)O (some centres unmarked) — tracer uptake (CWR22Rv1 tumour model; host not given, lung; 1 h, tumour-bearing): 0.341 %ID/g
N#Cc1ccc(-c2ccc(-c3ccco3)o2)nc1 — viability (Salmonella typhimurium; liquid broth OD; TA1535; 50 µM, 15 h; baseline: growth): 111 ± 10.1%
[99Tc+].[C-]#[N+]CC(C)(C)OC.[C-]#[N+]CC(C)(C)OC.[C-]#[N+]CC(C)(C)OC.[C-]#[N+]CC(C)(C)OC.[C-]#[N+]CC(C)(C)OC.[C-]#[N+]CC(C)(C)OC — total efflux (human sandwich-cultured hepatocytes; 20 min): 89.4 ± 1.8%
[64Cu+2].c1cnc(CNCc2ccc(CN3CCCN4CCNCCCN(CC4)CC3)cc2)nc1 — tissue uptake (CXCR4; NOD/SCID mouse, U87 and U87-stb-CXCR4 xenografts, liver; iv, 90 min, ex vivo, added: AMD3465 25 mg/kg sc before tracer): 34.9 ± 1.22 %ID/g
O=C(O)[C@@H]1C[C@@H](O)CN1C(=O)[C@@H]1CCCN1 — ΔH (iron(III) ion; complex formation, Van't Hoff plot; aqueous 0.15 M NaCl; MAH−2 complex species): 515 kJ/mol
Cc1cc(C#N)cc(C)c1Oc1nc(NC2CCN(Cc3cccc(Br)c3)CC2)nc2ccccc12 — selectivity index (HIV-1; TZM-bl, NL4-3 wild type; baseline: CC50 over EC50): > 6.06
N#Cc1ccc(-c2ccc(-c3cccs3)s2)cc1 — viability (Salmonella typhimurium; liquid broth OD; TA1535; 12.5 µM, 15 h; baseline: growth): 111 ± 6.1%
CC(C)CCC[C@@H](C)[C@H]1CCC([C@@H]2CC[C@H]3C[C@@H](O)CC[C@]3(C)[C@H]2O)[C@]1(C)CC(=O)O (some centres unmarked) — viability (HEK293T; CellTiter-Blue; concentration not given): 85.4%
Cc1cc(/C=C/C#N)cc(C)c1Oc1nc(NC2CCN(Cc3ccc(S(C)(=O)=O)cc3)CC2)nc2ccccc12 — selectivity index (HIV-1; TZM-bl, NL4-3 wild type; baseline: CC50 over EC50): 1470
[64Cu+2].c1ccc(CNCc2ccc(CN3CCCN4CCNCCCN(CC4)CC3)cc2)nc1 — tissue uptake (CXCR4; NOD/SCID mouse, U87 and U87-stb-CXCR4 xenografts, spleen; iv, 30 min, ex vivo): 21.1 ± 5.34 %ID/g
COc1cc2nc(NC3CCN(Cc4ccc(S(C)(=O)=O)cc4)CC3)nc(Oc3c(C)cc(C#N)cc3C)c2cc1OC — selectivity index (HIV-1; TZM-bl, NL4-3 wild type; baseline: CC50 over EC50): 1150
C=CCC1=CC2(CC(O)C(C)(C)O2)C2=C(CC3CC4C(=C)CCCC(C)(C)C4CC3(C)O2)C1=O (centres unmarked) — selectivity index (coxsackievirus B3; cytopathic effect; Vero, Nancy; baseline: CC50 over IC50): 5.2
N#Cc1ccc(-c2ccc(-c3cccs3)o2)nc1 — viability (Salmonella typhimurium; liquid broth OD; TA1535; 100 µM, 15 h; baseline: growth): 117 ± 9.6%
COc1cc2nc(NC3CCN(Cc4ccc(S(N)(=O)=O)cc4)CC3)nc(Oc3c(C)cc(C#N)cc3C)c2cc1OC — selectivity index (HIV-1; TZM-bl, NL4-3 wild type; baseline: CC50 over EC50): 914
N#Cc1ccc(-c2ccc(-c3cccs3)o2)cc1 — viability (Salmonella typhimurium; liquid broth OD; TA1535; 50 µM, 15 h; baseline: growth): 100 ± 7.3%
O=C(O[C@@H]1Cc2c(O)cc(O)cc2O[C@@H]1c1cc(O)c(O)c(O)c1)c1cc(O)c(O)c(O)c1 — remaining fluorescence (Albumin (ALB, Bos taurus, UniProt P02769); binding, fluorescence quenching; 25 µM, 1 h, pH 5.0, added: BSA 3 µM; baseline: untreated): 33.4%
N=C(N)c1ccc(-c2ccc(-c3cccs3)o2)cc1 — viability (Salmonella typhimurium; liquid broth OD; TA1535; 12.5 µM, 15 h; baseline: growth): 104 ± 9.8%
Cn1c(=O)oc2ccc(-c3ccc(CC(C#N)NC(=O)C4CNCCCO4)c(F)c3)cc21 (centres unmarked) — subjects with TEAE (refers to: total protein decreased; human; 15 mg single dose, fasted): 0%

Some of these lines once more:
O=C(O)CCC(NP(=O)(O)OCCC[C@@H](NC(=O)CC[C@H](NC(=O)CCCCCNC(=O)c1ccc([18F])cc1)C(=O)O)C(=O)O)C(=O)O (some centres unmarked) — tracer uptake (CWR22Rv1 tumour model; host not given, lung; 1 h, tumour-bearing): 0.341 %ID/g
N#Cc1ccc(-c2ccc(-c3ccco3)o2)nc1 — viability (Salmonella typhimurium; liquid broth OD; TA1535; 50 µM, 15 h; baseline: growth): 111 ± 10.1%
[99Tc+].[C-]#[N+]CC(C)(C)OC.[C-]#[N+]CC(C)(C)OC.[C-]#[N+]CC(C)(C)OC.[C-]#[N+]CC(C)(C)OC.[C-]#[N+]CC(C)(C)OC.[C-]#[N+]CC(C)(C)OC — total efflux (human sandwich-cultured hepatocytes; 20 min): 89.4 ± 1.8%
[64Cu+2].c1cnc(CNCc2ccc(CN3CCCN4CCNCCCN(CC4)CC3)cc2)nc1 — tissue uptake (CXCR4; NOD/SCID mouse, U87 and U87-stb-CXCR4 xenografts, liver; iv, 90 min, ex vivo, added: AMD3465 25 mg/kg sc before tracer): 34.9 ± 1.22 %ID/g
